Measurements from different studies.
Each numbered part is a random draw from the data of one study; scales do not carry over between parts.
Chain of UniProt P61075 (whole entry, looked up): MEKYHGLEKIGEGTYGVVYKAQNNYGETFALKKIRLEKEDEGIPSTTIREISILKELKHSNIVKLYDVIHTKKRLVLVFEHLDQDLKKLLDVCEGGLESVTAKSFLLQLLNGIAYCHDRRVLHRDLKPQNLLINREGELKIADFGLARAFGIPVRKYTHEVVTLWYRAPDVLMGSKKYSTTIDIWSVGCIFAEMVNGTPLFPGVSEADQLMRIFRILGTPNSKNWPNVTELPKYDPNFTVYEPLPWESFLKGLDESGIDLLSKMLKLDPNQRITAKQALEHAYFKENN
Chain of UniProt P28335 (whole entry, looked up): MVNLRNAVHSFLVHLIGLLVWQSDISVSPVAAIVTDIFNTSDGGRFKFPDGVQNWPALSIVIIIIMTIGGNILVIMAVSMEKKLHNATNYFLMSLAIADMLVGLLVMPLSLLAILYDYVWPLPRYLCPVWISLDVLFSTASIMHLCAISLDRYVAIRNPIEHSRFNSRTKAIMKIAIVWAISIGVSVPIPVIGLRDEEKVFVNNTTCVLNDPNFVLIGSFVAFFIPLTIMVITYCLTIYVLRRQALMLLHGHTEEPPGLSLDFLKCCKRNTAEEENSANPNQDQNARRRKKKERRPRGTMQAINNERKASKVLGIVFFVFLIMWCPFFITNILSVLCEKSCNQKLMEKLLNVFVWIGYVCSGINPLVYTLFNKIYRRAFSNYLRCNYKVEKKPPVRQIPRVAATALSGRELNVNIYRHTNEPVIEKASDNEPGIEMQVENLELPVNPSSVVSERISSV

Series 1
Cell line: A-375
Concentration: 100 µM
Time: 18 h
SMILES	viability [%]
Nc1nc(N)nc(NC2CC2)n1	69
CCC1=C[C@@H]2CN3CCc4c([nH]c5ccccc45)[C@@](C(=O)OC)(C2)[C@@H]13	80
OC(O)C(Cl)(Cl)Cl	104
NCC(O)c1ccc(O)cc1 (centres unmarked)	98

Series 2
Effect on: dsDNA unwinding
Method: PicoGreen fluorescence
Sample: annealed dsDNA substrate
Concentration: 20 µM
SMILES	effect
Cc1ccc(S(=O)(=O)/C=C/C#N)cc1	4.89%
C[C@H](NC(=O)/C(C#N)=C/c1cccc(Br)n1)c1ccccc1	2.95%
Cc1nc(C#Cc2ccnc(Cl)c2)c(C)n1-c1ccc(OC(F)(F)F)cc1	4.02%
CCC(=O)OCN1C(=O)C=CC1=O	5.5%
CN(C)CCOC(c1ccccc1)c1ccccc1.Cn1c(=O)c2[nH]c(Cl)nc2n(C)c1=O	7.88%
O=C(O)c1ccc(N2C(=O)/C(=C\c3ccc(-c4ccc([N+](=O)[O-])cc4)o3)C=C2c2ccccc2)cc1	11.5%
CCC[C@H](NC(=O)[C@@H]1[C@H]2CCC[C@H]2CN1C(=O)[C@@H](NC(=O)[C@@H](NC(=O)c1cnccn1)C1CCCCC1)C(C)(C)C)C(=O)C(=O)NC1CC1	2.36%
Cc1ccc(-n2sc(=O)n(Cc3ccc(F)cc3)c2=O)cc1	-4.47%
O=C(O[C@@H]1Cc2c(O)cc(O)cc2O[C@@H]1c1cc(O)c(O)c(O)c1)c1cc(O)c(O)c(O)c1	-6.08%
O=[N+]([O-])C(Br)(CO)CO	-5.09%
Oc1ccc2c(c1)CC[C@H](c1ccccc1)[C@@H]2c1ccc(OCCN2CCCC2)cc1	15.5%
CC(=O)C(=Cc1cc(O)c(O)c([N+](=O)[O-])c1)C(C)=O	12.2%
O=C(O)C(Cl)Cl	1.72%
O=c1sn(-c2cccc3ccccc23)c(=O)n1Cc1ccccc1	9.27%
CC(C)Nc1cccnc1N1CCN(C(=O)c2cc3cc(NS(C)(=O)=O)ccc3[nH]2)CC1	15.8%
O=c1c2ccccc2[se]n1-c1ccccc1	-2.05%
CO/N=C(\C(=O)N[C@@H]1C(=O)N2C(C(=O)O)=C(CSC(=O)c3ccco3)CS[C@H]12)c1csc(N)n1	1.43%
O=C(O)[C@@H](S)[C@@H](S)C(=O)O	4.25%
CN=c1nc(-c2ccccc2)n(-c2ccccc2)s1	-2.4%
C=CC(=O)c1ccc2ccccc2c1	10.2%
O=[N+]([O-])C=Cc1ccc2c(c1)OCO2	4.9%
COCCCOc1ccnc(C[S+]([O-])c2nc3ccccc3[nH]2)c1C (centres unmarked)	4.41%
O=C(Nc1cccnc1)N1CCC(Cc2cccc(Oc3ccc(C(F)(F)F)cn3)c2)CC1	5.67%
O=C1C=Cc2cc(Br)ccc2C1=O	1.66%
O=c1c(O)c(-c2cc(O)c(O)c(O)c2)oc2cc(O)cc(O)c12	8.26%

Series 3
Target: Calcium/calmodulin-dependent protein kinase type II subunit alpha (CAMK2A, Homo sapiens, UniProt Q9UQM7)
Chain of UniProt Q9UQM7 (whole entry, looked up): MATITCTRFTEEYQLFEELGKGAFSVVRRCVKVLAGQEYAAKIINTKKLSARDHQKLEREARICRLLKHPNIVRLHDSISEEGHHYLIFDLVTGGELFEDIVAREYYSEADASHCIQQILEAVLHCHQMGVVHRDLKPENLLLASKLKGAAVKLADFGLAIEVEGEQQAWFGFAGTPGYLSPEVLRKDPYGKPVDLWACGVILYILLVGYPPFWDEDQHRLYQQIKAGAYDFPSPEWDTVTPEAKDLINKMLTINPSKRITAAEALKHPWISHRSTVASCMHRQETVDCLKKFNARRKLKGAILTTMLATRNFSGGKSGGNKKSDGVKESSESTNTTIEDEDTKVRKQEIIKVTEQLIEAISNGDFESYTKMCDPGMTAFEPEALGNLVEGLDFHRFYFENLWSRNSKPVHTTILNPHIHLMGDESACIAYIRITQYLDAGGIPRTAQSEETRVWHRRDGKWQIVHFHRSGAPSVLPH
Effect on: enzyme activity
Mode: inhibitor
Concentration: 10 µM
SMILES	inhibition [%]
C=C1CC[C@H]2[C@@H](/C=C(\C)C(=O)[C@@]3(OC(C)=O)C[C@H](C)[C@H](OC(=O)c4ccccc4)[C@@H]3[C@H]1OC(C)=O)C2(C)C	-7
CC(C)(O)C(Cl)(Cl)Cl	-8
C[C@H]1CC[C@]2(NC1)O[C@H]1C[C@H]3[C@@H]4CC[C@H]5C[C@@H](O[C@@H]6O[C@H](CO)[C@H](O[C@@H]7O[C@H](CO)[C@@H](O)[C@H](O[C@@H]8OC[C@@H](O)[C@H](O)[C@H]8O)[C@H]7O[C@@H]7O[C@H](CO)[C@@H](O)[C@H](O)[C@H]7O)[C@H](O)[C@H]6O)CC[C@]5(C)[C@H]4CC[C@]3(C)[C@H]1[C@@H]2C	10
CC(=O)O[C@H]1C(=O)[C@@]2(C)[C@H]([C@H](OC(=O)c3ccccc3)[C@]3(O)C[C@H](O)C(C)=C1C3(C)C)[C@]1(OC(C)=O)CO[C@@H]1C[C@@H]2O	-13
CN(C)Cc1c[nH]c2ccccc12	-34
COC[C@]12CN(C)[C@@H]3[C@@H]4[C@H](OC)[C@H]1[C@@]3([C@@H](OC)C[C@H]2O)[C@@H]1C[C@@]2(O)[C@H](OC(=O)c3ccccc3)[C@@H]1[C@]4(OC(C)=O)[C@@H](O)[C@@H]2OC	-55
C[C@@H]1CC[C@H]2[C@@H](C)C(=O)O[C@@H]3O[C@@]4(C)CC[C@@H]1[C@]32OO4	0

Series 4
Organism: Sarcocystis neurona
Effect on: parasite growth
Concentration: 10 µM
Time: 96 h
Structure (SMILES)	inhibition [%]
NC(=O)C[S+]([O-])C(c1ccccc1)c1ccccc1 (centres unmarked)	-12.9
CNCC(O)c1ccc(O)cc1 (centres unmarked)	-15.6
C=C1C[C@@H]2[C@H](CC[C@]3(C)C(=O)CC[C@@H]23)[C@@]2(C)C=CC(=O)C=C12	-6.1
CN1C(=O)CN=C(c2ccccc2)c2cc([N+](=O)[O-])ccc21	-6.7
O=C1CN=C(c2ccccc2)c2cc([N+](=O)[O-])ccc2N1	-13.4
C[C@]12C/C(=C/O)C(=O)C[C@@H]1CC[C@@H]1[C@@H]2CC[C@@]2(C)[C@H]1CC[C@]2(C)O	-5.1
Cc1nnc2n1-c1ccc(Cl)cc1C(c1ccccc1)=NC2	-2.8
CC(NC(C)(C)C)C(=O)c1cccc(Cl)c1 (centres unmarked)	-12
Cc1ncc2n1-c1ccc(Cl)cc1C(c1ccccc1F)=NC2	-13.5
COc1ccc(C(CN(C)C)C2(O)CCCCC2)cc1 (centres unmarked)	-6.9

Mixed results
Tspo: Translocator protein (Tspo, Rattus norvegicus, UniProt P16257)
Chain of UniProt P16257 (whole entry, looked up): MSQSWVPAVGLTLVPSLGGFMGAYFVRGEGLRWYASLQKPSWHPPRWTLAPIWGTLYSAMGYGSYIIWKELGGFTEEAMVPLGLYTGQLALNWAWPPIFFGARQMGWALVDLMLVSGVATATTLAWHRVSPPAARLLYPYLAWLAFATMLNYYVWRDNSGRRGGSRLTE
SMILES	target	test	conditions	endpoint	value
N#CC1(c2ccccn2)CCN(Cc2cc(C(=O)O)c(=O)n3ccccc23)CC1	Tspo	radioligand binding, radioligand displacement	10 µM	inhibition	7.88%
Cn1cncc1[C@](O)(COc1ccc(C#N)cc1-c1ccc(OC(F)(F)F)cc1)c1ccc(C#N)cc1	Tspo	radioligand binding, radioligand displacement	10 µM	inhibition	-1.86%
O=C(Nc1cccnn1)N1CCC(=Cc2cccc(Oc3ccc(C(F)(F)F)cn3)c2)CC1	CRK2 (Plasmodium falciparum, UniProt P61075)	cell-free assay, competition with immobilised ligand	1 µM	remaining binding	100%
Cc1nccc(COC(=O)N2C[C@@H]3[C@@H](CNC(=O)c4ccc5[nH]nnc5c4)[C@@H]3C2)n1	HTR2C (Homo sapiens, UniProt P28335)	binding, radioligand binding	10 µM	inhibition	31.1%
